Experimental data collected from several papers.
Compare with care: the assays were run in different laboratories. ± gives the spread as reported.
Target: Cytochrome P450 3A4 (CYP3A4, Homo sapiens, UniProt P08684)
Sequence of UniProt P08684 (whole entry, looked up): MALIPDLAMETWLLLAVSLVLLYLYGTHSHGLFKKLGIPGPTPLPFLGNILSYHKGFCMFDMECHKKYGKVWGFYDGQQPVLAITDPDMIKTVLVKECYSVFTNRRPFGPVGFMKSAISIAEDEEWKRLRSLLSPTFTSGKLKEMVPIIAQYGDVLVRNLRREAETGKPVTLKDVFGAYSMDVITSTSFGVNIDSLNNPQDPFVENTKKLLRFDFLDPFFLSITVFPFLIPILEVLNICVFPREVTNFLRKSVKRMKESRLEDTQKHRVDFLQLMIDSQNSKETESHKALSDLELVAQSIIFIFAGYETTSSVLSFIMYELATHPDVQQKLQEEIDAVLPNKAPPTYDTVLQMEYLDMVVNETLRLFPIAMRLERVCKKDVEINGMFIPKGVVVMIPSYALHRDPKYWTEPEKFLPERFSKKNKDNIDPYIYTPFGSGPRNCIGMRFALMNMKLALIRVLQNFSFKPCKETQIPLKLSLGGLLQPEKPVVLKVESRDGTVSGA
Mode: inhibitor

| Compound | assay | system | setting | IC50 |
| --- | --- | --- | --- | --- |
| C[C@]1(O)CCCN(c2nc(Nc3ccc(S(=O)(=O)N[C@H]4CC[C@H](CN5CCN(c6ccc(C7CCC(=O)NC7=O)cc6F)CC5)CC4)cc3)ncc2C(F)(F)F)C1 (stereo partly drawn) | time-dependent inhibition |  | 30 min preincubation, with: NADPH | > 10 µM |
| O=C(OCCCc1cc2c(cc1OCc1ccccc1)OCO2)c1ccccc1 | enzyme activity, fluorescence | recombinant enzyme | with: dibenzyl fluorescein substrate | 5.8 µM |
| O=C(NC1CCC(F)(F)CC1)C(c1cncnc1)N(C(=O)C(F)Cl)c1ccc(-c2cncs2)cc1 (stereo not drawn) | enzyme activity |  | 10 (unit not given) | 1.45 µM |
| CCc1nc(N)nc(N)c1C#CC(C)c1cc(-c2cc(C)nc(C)c2)ccc1OC (stereo not drawn) | enzyme activity, fluorescence |  | 30 min | 3.6 µM |
| C[C@](C(=O)NC1CCC(F)(F)CC1)(c1cncnc1)N(C(=O)[C@H](F)Cl)c1ccc(OC(F)(F)F)cc1 | enzyme activity |  | 10 (unit not given) | 15.6 µM |
| CN(C)C(CNC(=O)Nc1cc(C(F)(F)F)ccc1N1CCOCC1)c1ccncc1 (stereo not drawn) | enzyme activity | human, liver microsomes |  | 0.44 µM |
| COc1ccc(-c2cccc(S(=O)(=O)N[C@@H](Cc3cccc(C(=N)N)c3)C(=O)N3CCN(C(=O)NC4CCCCC4)CC3)c2)c(OC)c1 | enzyme activity, fluorometric | human liver microsomes | 15 min, 37 °C | 0.63 ± 0.04 µM |
| COC(=O)c1ccc2c(c1)NC(=O)/C2=C(\Nc1ccc2c(c1)CCN2C(=O)CN1CCOCC1)c1ccccc1 |  | recombinant enzyme | 10 min, with: testosterone 50 µM | 0.087 µM |
| COc1ccc(-c2cccc(S(=O)(=O)N[C@@H](Cc3cccc(C(=N)N)c3)C(=O)N3CCC(NC(=O)NC4CCCCC4)CC3)c2)c(OC)c1 | enzyme activity, fluorometric | human liver microsomes | 15 min, 37 °C | 0.21 ± 0.03 µM |
| CC(C)=CCC/C(C)=C/COc1c2ccoc2cc2oc(=O)ccc12 |  |  | 30 min | 12.9 ± 1.17 µM |
| N=C(N)c1cccc(C[C@H](NS(=O)(=O)c2cccc(-c3cc(CO)ccc3Cl)c2)C(=O)N2CCC(CCNC(=O)NC3CCCCC3)CC2)c1 | enzyme activity |  | testosterone probe | 4.6 µM |
| CC1CCC2(OC1)OC1CC3C4CC=C5CC(OC6OC(CO)C(OC7OC(CO)C(O)C7O)C(O)C6OC6OC(C)C(O)C(O)C6O)CCC5(C)C4CCC3(C)C1(O)C2C (stereo not drawn) | enzyme activity | human, liver microsomes | 1 h, pH 7.4, testosterone probe | 4.52 µM |

A few entries again:
| Compound | assay | system | setting | IC50 |
| --- | --- | --- | --- | --- |
| C[C@]1(O)CCCN(c2nc(Nc3ccc(S(=O)(=O)N[C@H]4CC[C@H](CN5CCN(c6ccc(C7CCC(=O)NC7=O)cc6F)CC5)CC4)cc3)ncc2C(F)(F)F)C1 (stereo partly drawn) | time-dependent inhibition |  | 30 min preincubation, with: NADPH | > 10 µM |
| O=C(OCCCc1cc2c(cc1OCc1ccccc1)OCO2)c1ccccc1 | enzyme activity, fluorescence | recombinant enzyme | with: dibenzyl fluorescein substrate | 5.8 µM |
